Measured values gathered from unrelated publications.
Protocols differ between the studies behind these lines. “And” joins repeats or separate records; there may be more than shown. Numbers after ± are the reported error.
Sequence of UniProt Q9HBH9 (whole entry, looked up): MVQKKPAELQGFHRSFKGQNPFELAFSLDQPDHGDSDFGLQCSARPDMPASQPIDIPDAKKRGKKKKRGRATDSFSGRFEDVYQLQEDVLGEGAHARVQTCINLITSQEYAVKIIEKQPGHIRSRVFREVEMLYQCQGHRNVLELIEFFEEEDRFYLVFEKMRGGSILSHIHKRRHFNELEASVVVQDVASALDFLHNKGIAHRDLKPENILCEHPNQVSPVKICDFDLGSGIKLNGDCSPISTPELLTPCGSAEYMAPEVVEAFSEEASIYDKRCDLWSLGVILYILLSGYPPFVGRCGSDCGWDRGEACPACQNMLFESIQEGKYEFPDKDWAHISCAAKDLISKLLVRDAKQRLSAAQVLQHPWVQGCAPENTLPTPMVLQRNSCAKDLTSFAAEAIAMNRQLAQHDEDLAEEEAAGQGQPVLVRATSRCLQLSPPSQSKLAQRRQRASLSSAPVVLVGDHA
Sequence of UniProt Q9UL54 (whole entry, looked up): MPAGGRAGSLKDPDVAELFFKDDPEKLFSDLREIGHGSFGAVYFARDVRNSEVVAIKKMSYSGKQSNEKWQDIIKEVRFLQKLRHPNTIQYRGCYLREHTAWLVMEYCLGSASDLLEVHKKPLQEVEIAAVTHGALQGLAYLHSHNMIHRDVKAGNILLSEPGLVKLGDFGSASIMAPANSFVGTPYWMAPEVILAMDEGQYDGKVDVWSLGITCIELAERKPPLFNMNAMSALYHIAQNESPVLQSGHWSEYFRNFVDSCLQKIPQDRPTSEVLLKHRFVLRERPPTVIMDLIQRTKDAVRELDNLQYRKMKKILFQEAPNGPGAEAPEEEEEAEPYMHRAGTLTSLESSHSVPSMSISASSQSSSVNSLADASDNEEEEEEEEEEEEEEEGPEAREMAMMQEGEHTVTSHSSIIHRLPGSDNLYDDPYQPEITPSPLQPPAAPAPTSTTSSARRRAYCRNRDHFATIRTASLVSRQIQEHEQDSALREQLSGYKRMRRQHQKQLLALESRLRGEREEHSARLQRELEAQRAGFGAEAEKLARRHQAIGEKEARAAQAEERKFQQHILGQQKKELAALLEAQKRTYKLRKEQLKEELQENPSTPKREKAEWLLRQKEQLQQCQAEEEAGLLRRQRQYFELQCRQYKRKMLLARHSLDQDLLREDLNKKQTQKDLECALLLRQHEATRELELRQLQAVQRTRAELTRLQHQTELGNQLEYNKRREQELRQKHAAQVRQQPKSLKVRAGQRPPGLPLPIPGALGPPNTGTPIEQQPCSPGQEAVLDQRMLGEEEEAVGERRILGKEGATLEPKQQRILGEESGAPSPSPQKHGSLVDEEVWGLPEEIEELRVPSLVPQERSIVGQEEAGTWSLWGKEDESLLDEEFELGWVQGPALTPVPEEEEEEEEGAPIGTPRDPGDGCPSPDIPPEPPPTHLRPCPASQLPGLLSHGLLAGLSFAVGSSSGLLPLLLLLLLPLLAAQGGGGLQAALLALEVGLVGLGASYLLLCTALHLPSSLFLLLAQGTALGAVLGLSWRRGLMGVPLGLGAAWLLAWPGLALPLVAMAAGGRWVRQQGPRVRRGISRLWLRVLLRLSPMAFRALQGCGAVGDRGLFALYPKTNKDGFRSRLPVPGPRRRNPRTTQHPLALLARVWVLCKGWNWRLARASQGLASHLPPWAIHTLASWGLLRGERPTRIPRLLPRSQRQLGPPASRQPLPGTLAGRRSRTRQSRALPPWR
Sequence of UniProt Q8N568 (whole entry, looked up): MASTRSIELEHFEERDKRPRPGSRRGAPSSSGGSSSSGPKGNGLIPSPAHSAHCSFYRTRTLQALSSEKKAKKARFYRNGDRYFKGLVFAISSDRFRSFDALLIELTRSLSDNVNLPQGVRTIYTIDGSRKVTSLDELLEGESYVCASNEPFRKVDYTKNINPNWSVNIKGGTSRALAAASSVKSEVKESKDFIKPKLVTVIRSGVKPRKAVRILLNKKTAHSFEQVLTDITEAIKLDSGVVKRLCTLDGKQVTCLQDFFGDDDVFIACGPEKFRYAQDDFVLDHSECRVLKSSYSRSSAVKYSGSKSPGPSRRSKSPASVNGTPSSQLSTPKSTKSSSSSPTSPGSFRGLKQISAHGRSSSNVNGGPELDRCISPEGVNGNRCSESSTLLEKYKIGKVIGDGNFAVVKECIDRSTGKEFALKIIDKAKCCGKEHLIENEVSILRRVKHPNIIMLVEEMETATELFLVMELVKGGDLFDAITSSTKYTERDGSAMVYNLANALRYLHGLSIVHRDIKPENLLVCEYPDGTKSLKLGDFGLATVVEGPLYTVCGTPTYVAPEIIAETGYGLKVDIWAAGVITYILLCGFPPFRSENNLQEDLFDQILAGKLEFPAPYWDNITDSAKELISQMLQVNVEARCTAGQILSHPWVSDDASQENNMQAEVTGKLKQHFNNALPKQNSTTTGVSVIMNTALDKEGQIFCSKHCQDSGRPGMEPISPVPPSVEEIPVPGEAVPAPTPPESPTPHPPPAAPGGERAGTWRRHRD
Sequence of UniProt Q8IZL9 (whole entry, looked up): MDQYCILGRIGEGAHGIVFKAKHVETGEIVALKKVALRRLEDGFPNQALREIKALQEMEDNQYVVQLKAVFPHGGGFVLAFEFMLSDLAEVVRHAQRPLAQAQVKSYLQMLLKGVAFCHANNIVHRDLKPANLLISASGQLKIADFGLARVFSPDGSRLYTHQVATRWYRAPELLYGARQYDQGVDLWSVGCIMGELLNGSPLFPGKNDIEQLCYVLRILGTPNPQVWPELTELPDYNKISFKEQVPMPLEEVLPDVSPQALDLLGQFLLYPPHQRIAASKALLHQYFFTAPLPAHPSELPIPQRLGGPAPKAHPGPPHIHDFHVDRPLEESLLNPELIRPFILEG

Structure (SMILES) = CC(C)CC(C(=O)N1CC2(CC1C#N)C(=O)Nc1ccccc12)N(C)C(=O)c1cc2c(F)cc(F)c(F)c2[nH]1 (stereo not drawn); tested on = Human coronavirus 229E; assay = cytopathic effect; test system = MRC5; setting = 0.1095 µM; quantity = inhibition; value = 106%
Structure (SMILES) = CN(C)[C@H]1C[C@@]23CC[C@@]4(O2)C(=CC[C@]2(C)[C@@H](c5ccc6ccncc6c5)CC[C@H]24)C=C3[C@@H](O)[C@@H]1O; tested on = Cyclin-dependent kinase 20 (CDK20, Homo sapiens, UniProt Q8IZL9); assay = ATP probe labelling, inhibitor, KiNativ profiling; setting = 1 µM; quantity = inhibition; value = 6.3%
Structure (SMILES) = O=C(O)c1ccc(-c2nc(-c3ccccc3Cl)c3sccn23)cc1; tested on = CD34+ hematopoietic stem cells; setting = 10 µM, day 7, without TPO; quantity = CD41-positive cell number; value = 642000 and 799000
Structure (SMILES) = O=S(=O)(c1ccc(-c2ccc3ncnc(Nc4ccc(O)c(Cl)c4)c3c2)cc1)N1CCOCC1; tested on = Plasmodium falciparum; assay = parasite growth, SYBR Green fluorescence; test system = W2, drug-resistant; quantity = EC50; value = 19 µM
Structure (SMILES) = Cc1ccc(N2CC3CC(C2)N3C)cc1C(=O)NC1(c2ccc3c4c(cccc24)C(=O)N3C)CC1; tested on = human coronavirus 229E; assay = viral replication; test system = Huh-7; setting = 0.04688 µM; quantity = inhibition; value = 0%
Structure (SMILES) = Cc1cc(C(=O)Nc2nc3cccc(C)c3n2[C@H]2CCCCN(C(=O)/C=C/CN(C)C)C2)ccn1; tested on = Trypanosoma brucei; assay = cell growth, Alamar Blue; test system = 2T1 overexpressing Tb927.7.3210; how to read = baseline: parental 2T1; quantity = EC50 fold shift; value = 1.36 fold and 0.58 fold
Structure (SMILES) = Cc1cc(Oc2nc(N3CC[C@@H](c4ccncc4)C3)ncc2F)[nH]n1; tested on = Mycobacterium tuberculosis; test system = THP-1, H37Rv non-replicating; setting = 3.001 µM, day 4; quantity = normalised growth; value = 3.77% and 13.2%
Structure (SMILES) = CS(C)(=O)=Nc1ccc(-c2ccc(-c3nc4cc(O[C@@H]5CO[C@H]6[C@@H]5OC[C@H]6O)[nH]c4cc3F)cc2)cc1; tested on = Serine/threonine-protein kinase TAO2 (TAOK2, Homo sapiens, UniProt Q9UL54); assay = enzyme activity, inhibitor; setting = 10 µM; quantity = inhibition; value = 1%
Structure (SMILES) = COc1ccccc1-c1n[nH]c2nc(NC3CCN(C(=O)Cc4ccc(F)cc4F)CC3)ncc12; assay = bead binding, competition bead pull-down, refers to: LMJF.36.3530; test system = Leishmania donovani axenic amastigote extract; setting = 10 µM; how to read = baseline: vehicle; quantity = relative abundance; value = 0.91
Structure (SMILES) = CCOC(=O)C1(Cc2cc(F)c(F)c(F)c2)Oc2cc(F)ccc2N(Cc2cc(F)c(F)c(F)c2)C1=O (stereo not drawn); tested on = Arabidopsis thaliana; assay = stem length, petri dish germination; test system = Col-0, 1/2 MS medium; setting = 50 µg/mL, 7 days, 22 °C, dark; quantity = inhibition; value = 48%
Structure (SMILES) = O=C1NC2(CC2)COc2ncc(F)cc2[C@H]2COCCN2c2ccn3ncc1c3n2; test system = Sprague-Dawley rat, male, serum; setting = oral, 2.5 mg/kg/day, end of recovery, 4-week subacute toxicity; quantity = serum urea; value = 4.19 ± 0.49 mmol/L
Structure (SMILES) = O=C1NC(=O)c2c1c1cc(F)c[n+]3c1c1c2c2cc(O)ccc2[n]1[Ru-4]312([N]=C=S)[S+]3CC[S+]1CC[S+]2CC3 (stereo not drawn); tested on = Serine/threonine-protein kinase DCLK2 (DCLK2, Homo sapiens, UniProt Q8N568); assay = enzyme activity; setting = 100 nM, human enzyme, added: 10 µM ATP; how to read = baseline: untreated; quantity = remaining activity; value = 72%
Structure (SMILES) = CC(C)[C@H]1NC(=O)C[C@H]2/C=C/CCSSC[C@@H](NC1=O)C(=O)N[C@H](Cc1cccc3ccccc13)C(=O)NCC(=O)O2; tested on = MAP kinase-interacting serine/threonine-protein kinase 2 (MKNK2, Homo sapiens, UniProt Q9HBH9); assay = enzyme activity, inhibitor; setting = 10 µM; quantity = inhibition; value = 0.7%
Structure (SMILES) = COc1ccccc1-c1n[nH]c2nc(N[C@H]3CC[C@H](NS(=O)(=O)CC(C)C)CC3)ncc12; assay = bead binding, competition bead pull-down, refers to: LINJ.30.0080; test system = Leishmania donovani extract; setting = 10 µM; how to read = baseline: vehicle; quantity = relative abundance; value = 0.13
Structure (SMILES) = CC(C)(C)C(=O)OCOP(=O)(OCOC(=O)C(C)(C)C)C1CCCN(O)C1=O (stereo not drawn); tested on = HT-29; quantity = GI50; value = 335 nM

Excerpt of the above:
Structure (SMILES) = O=S(=O)(c1ccc(-c2ccc3ncnc(Nc4ccc(O)c(Cl)c4)c3c2)cc1)N1CCOCC1; tested on = Plasmodium falciparum; assay = parasite growth, SYBR Green fluorescence; test system = W2, drug-resistant; quantity = EC50; value = 19 µM
Structure (SMILES) = Cc1ccc(N2CC3CC(C2)N3C)cc1C(=O)NC1(c2ccc3c4c(cccc24)C(=O)N3C)CC1; tested on = human coronavirus 229E; assay = viral replication; test system = Huh-7; setting = 0.04688 µM; quantity = inhibition; value = 0%
